Results gathered from unrelated publications.
Protocols differ between the studies behind these lines. Values joined by “and” are separate records of one study, mostly repeats; a detail may differ. ± marks the error that the study gave.

Under “cells in S phase”, `Cc1sc2c(c1C)C(c1ccc(Cl)cc1)=N[C@@H](CC(=O)NCC(=O)N1CCC3(CCC(C(=O)N4CCN(C(=O)c5cc(Cc6n[nH]c(=O)c7ccccc67)ccc5F)CC4)CC3)CC1)c1nnc(C)n1-2` is recorded as 83% (NCI-H82; 1000 nM, 24 h).
With `O=C(NCc1ccc(OC(F)(F)F)cc1)[C@H]1CCCN(c2ncnc3[nH]c(-c4ccc(C(F)(F)F)cc4)cc23)C1` the inhibition was 11.3% (NCI-H2228; cell growth or viability, MTT; 0.04 µg/mL, 72 h).
With `N#Cc1cccc(/C=C/C(=O)c2ccc(O)cc2)c1` the fold change was 41.9 (U-87 MG; refers to: CTH; concentration not given; reference: untreated).
`CC[C@@H](C)[C@@H](NC(=O)[C@@H](Cc1ccc(O)cc1)NC(=O)[C@H]1CCCN1C(=O)[C@@H](CCCNC(=N)N)NC(=O)[C@H](N)Cc1c[nH]cn1)C(=O)N[C@H](C)C(=O)N[C@H](Cc1c[nH]cn1)C(=O)NCC(=O)NCC(=O)NCC(=O)N[C@@H](CCCCNC(=O)CCCC[C@@H]1SC[C@@H]2NC(=O)N[C@@H]21)C(N)=O` has a binding rate of 0.22% and 0.19% and 0.24% (HEK293T-GFP cells; flow cytometry; concentration not given, added: biotin-labelled peptide).
For `Cc1cc(N)ccc1-c1cc2c(N3CCC[C@H](C(=O)NCc4ccc(OC(F)(F)F)cc4)C3)ncnc2[nH]1`, the inhibition was 86% (NCI-H2228; cell growth or viability, MTT; 5 µg/mL, 72 h).
For `N=C(S)N/N=C/c1ncc(C(F)(F)F)cc1Cl`, the efficacy was 138% (LDR; silenced CMV-GFP reporter derepression, qHTS).
The inhibition of `Cc1n[nH]c(C)c1-c1cc2c(N3CCC[C@H](C(=O)NCc4ccc(OC(F)(F)F)cc4)C3)ncnc2[nH]1` is reported as 78.8% (NCI-H2228; cell growth or viability, MTT; 5 µg/mL, 72 h).
The colony count of `COc1ccccc1-c1ccncc1C(=O)Nc1nnc(OCc2ccc(Cl)cc2)s1` is reported as 38 and 35 and 19 and 22 and 43 and 39 (DLD-1 BRCA2-/-; 0.5 µM, single replicate).
For `Cc1cc(NC2CCN(C)CC2)ccc1-c1cc2c(N3CCC[C@H](C(=O)Nc4ccc(C(F)(F)F)cc4)C3)ncnc2[nH]1`, the inhibition was 52.2% (NCI-H2228; cell growth or viability, MTT; 0.008 µg/mL, 72 h).
`COc1ccc2c(c1)c(CC(=O)[Se]CC(=O)Nc1cccc(C(F)(F)F)c1)c(C)n2C(=O)c1ccc(Cl)cc1` has a mean TGI of 3.86 µM (NCI60 renal subpanel; total growth inhibition, inhibitor; five-dose).
The GI50 of `CCN(C(=O)c1cc(F)ccc1Oc1nncnc1N1CCC2(C1)CN([C@H](CCCN(C)CCOC)C(C)C)C2)C(C)C` is reported as > 10 µM (786-O; cell growth; 168 h).
Under mRNA level, `CC(C)(O)c1ccn2c(-c3ccc(F)c(-c4ccc(F)cc4C#N)c3)cnc2c1F` is recorded as “no effect” (HEK-293T stably expressing GABAA receptors; quantitative RT-PCR, refers to: α1 G251D, β2, γ2 subunits; 5 µM, 24 h, added: hispidulin 10 µM).
`O=C(C[Se]C(=O)c1cccnc1Nc1cccc(C(F)(F)F)c1)Nc1cccc(C(F)(F)F)c1`: “late apoptotic/dead cells” 35.7% (LNCaP; caspase 3/7; 10 µM, 24 h).
The growth percent of `O=C(Nc1nnc2c1c(-c1ccc(Cl)cc1)nc1sc(=Cc3ccco3)c(=O)n12)c1ccccc1` (mixture of isomers) is reported as 57.2% (A549/ATCC; NCI60 SRB; 10 µM).
With `Cc1cc(NC2CCN(C)CC2)ccc1-c1cc2c(N3CCC[C@H](C(=O)NCc4ccc(OC(F)(F)F)cc4)C3)ncnc2[nH]1` the inhibition was 71.7% (NCI-H2228; cell growth or viability, MTT; 0.04 µg/mL, 72 h).
The fold regulation of `CCN(CC)CC(=O)Nc1cccc(-n2cc(-c3ccc4ccc(-c5cn(-c6cccc(NC(=O)CN(CC)CC)c6)nn5)cc4c3)nn2)c1` is reported as 2.51 fold (RCC4; PCR angiogenesis array, refers to: TEK; 5 x IC50, 4 h, normoxia; reference: untreated).
`Oc1c(/N=N/c2ccccn2)ccc2ccccc12` has an Emax of 124% (LDR; silenced CMV-GFP reporter derepression, qHTS).
`CN1CCCNC(=O)c2cccc(c2)C(=O)NCCCN(C)CCCNc2cccc3c2C(=O)c2cccc(c2C3=O)NCCC1` — result for “log2 fold change”: 1.34 (SAS; RNA-Seq, refers to: OARD1 mRNA; 1 µM, 6 h; reference: untreated cells).
With `CCOc1cncc(-c2ccc(NC(=O)C3(c4ccnc(NS(=O)(=O)C5CC5)n4)CCOCC3)nc2)n1` the IC50 was 0.113 µM (A204; cell proliferation, CellTiter-Glo; 72 h, Sarcoma cancer).
The IC50 of `CC(C)c1ccc(N(C)c2ccc3c(c2)OCC[C@H]3CNc2cnccc2C(=O)O)cc1` is reported as 0.00689 µM (TE-9; cell viability, CellTiter-Glo; 7 days).
The mean TGI of `O=C(C[Se]C(=O)c1cc2ccccc2s1)Nc1cccc(C(F)(F)F)c1` is reported as 3.19 µM (NCI60 renal subpanel; total growth inhibition, inhibitor; five-dose).
The colony survival of `CO[C@@H]1[C@@H](OC(N)=O)[C@@H](O)[C@H](Oc2ccc3c(O)c(NC(=O)c4ccc(O)c(CC=C(C)C)c4)c(=O)oc3c2C)OC1(C)C` is reported as 0.312% (DLD-1 BRCA2-/-; 150 µM, replicate B; reference: untreated).
Under “cells in G2/M phase”, `Cc1cc(Cl)cc(-c2ccnc3cc(CN4C(=O)C5C(C4=O)C5(C)C)sc23)c1C[C@@H]1CNCCO1` (stereo partly shown) is recorded as 14.3% and 10.1% and 17.4% (CHP-212 parental (wild-type USP7); PI flow cytometry; 1 µM, 24 h).
With `O=C(C[Se]C(=O)c1cc2ccccc2o1)Nc1cccc(C(F)(F)F)c1` the mean TGI was 3.35 µM (NCI60 renal subpanel; total growth inhibition, inhibitor; five-dose).
For `CCNc1cc2c(cc1C)C1(c3cc(C)c(NCC)cc3O2)c2ccccc2C(=O)N1N=Cc1c[c-]c(-c2ccccn2)cc1.Cc1c(C)c(-c2ccc(-c3ccccc3)cc2)[c-](C)c1C.[Cl-].[Ir+3]`, “early apoptotic cells” read 2.46 ± 0.12% (A549; annexin V-FITC/PI flow cytometry; 0.5 x IC50, 24 h).
`Cc1ncsc1-c1ccc(C(C)NC(=O)C2CC(O)CN2C(=O)C(NC(=O)CCCCCCCCCCN2CCCC(Nc3ncc(Cl)c(Nc4ccccc4S(=O)(=O)C(C)C)n3)C2)C(C)(C)C)cc1` (stereo not shown) — result for “log2 fold change”: -1.14 (22Rv1; RNA-seq, refers to: MIS12 mRNA; concentration not given; reference: DMSO).
For `Cc1ccc(C(C)C)c(OCc2ccc(C(=O)N/N=C/c3cccc(O)c3O)cc2)c1`, the Emax was 35% (LDR; silenced CMV-GFP reporter derepression, qHTS).
`COc1c(C)c(O)c(C(=O)C=Cc2ccccc2)c(OC)c1C` has a selectivity index of 3.38 (SH-SY5Y; SRB; reference: normal over SH-SY5Y IC50).
The GI50 of `CC(C)Cc1ccc(C(C)C(=O)[Se]CC(=O)Nc2cccc(C(F)(F)F)c2)cc1` (stereo not shown) is reported as 1.96 µM (NCI60 renal subpanel; cell growth, inhibitor; five-dose).
For `CNS(=O)(=O)Nc1nccc(Cc2c(C)c3ccc(Oc4ncccc4F)cc3oc2=O)c1F`, the IC50 was 0.212 µM (A-172; cell viability, CellTiter-Glo; 7 days).
For `Cn1ncc(-c2ccc3c(=O)[nH]nc(CN)c3c2)c1-c1c(F)c(Cl)cc(OC2CC2)c1C#N`, the IC50 was 2.6 µM (CAKI-2; cell viability, inhibitor, CellTiter-Glo; 120 h, baseline-subtracted).
With `C=CC(=O)Oc1ccc(OC)c(-c2c[nH]c3ncc(-c4cncc(C(=O)N(C)C)c4)cc23)c1` the GI50 was 0.0619 ± 0.0356 µM (Ba/F3 BCR-ABL T315I; cell proliferation; 72 h).
`CCCCCCCCCCCC(=O)N[C@@H](CO)C[C@@H](O)c1cccc(CCCCCC)c1` has a ceramide level of 1940 pmol/sample and 2520 pmol/sample and 1660 pmol/sample (HeLa; CERT activity, HPLC-MS/MS lipidomics, refers to: ceramide 22; 1 µM, 24 h, not cell-number normalised).
`COC(=O)c1cc(NC2=NC(=O)C(=Cc3ccc(C)cc3)S2)ccc1OC(C)=O` has a metabolite level of -0.59 fold change (MCF7; GC-MS, refers to: Myristic acid; 1 µM; reference: DMSO).
`Cc1nn(C)cc1-c1cc2c(N3CCC[C@H](C(=O)NCc4ccc(OC(F)(F)F)cc4)C3)ncnc2[nH]1` has an inhibition of 62% (NCI-H2228; cell growth or viability, MTT; 0.04 µg/mL, 72 h).
`Cn1ncc2cc(-c3cncc(Cl)c3N3CCC4(CCNC4=O)CC3)ccc21`: “fold change in expression” -2.15 (LS174T; microarray, refers to: MT1E; concentration not given, 4 h, gene set Metallothionein-1E; reference: untreated cells).
`COc1nc(Nc2nc(O)c3ccccc3n2)nc2ccc(C)cc12` has an Emax of 44% (LDR; silenced CMV-GFP reporter derepression, qHTS).
With `Cc1cc(NC2CCN(C)CC2)ccc1-c1cc2c(N3CCC[C@H](C(=O)N[C@H](C)c4ccccc4)C3)ncnc2[nH]1` the inhibition was 43% (NCI-H2228; cell growth or viability, MTT; 0.04 µg/mL, 72 h).
For `CSC(=S)N/N=C(\C)c1ccc(Nc2nnc(-c3ccc(Cl)cc3)c3ccccc23)cc1`, the viability was 6.7% (HepG2; cell growth or viability, MTT; 0.625 µM, 24 h).
`[BH3-][P+]1(c2ccccc2)CCCCC1`: “reduction of cell number” 45 to 53% (SW480; trypan blue; IC50, 72 h; reference: untreated).
For `CN1CCN(C(=O)c2ccc(-c3cc4c(N5CCC[C@H](C(=O)NCc6ccc(OC(F)(F)F)cc6)C5)ncnc4[nH]3)cc2)CC1`, the inhibition was 87.6% (NCI-H2228; cell growth or viability, MTT; 5 µg/mL, 72 h).
For `CCCC(=O)N1CCN(c2ccc(NC(=O)c3ccc([N+](=O)[O-])o3)cc2Cl)CC1`, the EC50 was 2.51 µM (LDR; silenced CMV-GFP reporter derepression, qHTS).
`COC(=O)c1cc(NC2=NC(=O)C(=Cc3ccc(N(C)C)cc3)S2)ccc1OC(C)=O` has a fold change of 0.0114 (A549; refers to: ACTR8 mRNA; 2.93 µM (IC50), 24 h; reference: DMSO).

For quick reference, copied from above:
With `Cc1cc(NC2CCN(C)CC2)ccc1-c1cc2c(N3CCC[C@H](C(=O)NCc4ccc(OC(F)(F)F)cc4)C3)ncnc2[nH]1` the inhibition was 71.7% (NCI-H2228; cell growth or viability, MTT; 0.04 µg/mL, 72 h).
`COC(=O)c1cc(NC2=NC(=O)C(=Cc3ccc(C)cc3)S2)ccc1OC(C)=O` has a metabolite level of -0.59 fold change (MCF7; GC-MS, refers to: Myristic acid; 1 µM; reference: DMSO).
